# Results pooled from the literature.
# A part holds a random share of what one study measured. Several values in a cell are separate wells, animals, samples, runs or records.
# Chain of UniProt Q8IVW4 (whole entry, looked up): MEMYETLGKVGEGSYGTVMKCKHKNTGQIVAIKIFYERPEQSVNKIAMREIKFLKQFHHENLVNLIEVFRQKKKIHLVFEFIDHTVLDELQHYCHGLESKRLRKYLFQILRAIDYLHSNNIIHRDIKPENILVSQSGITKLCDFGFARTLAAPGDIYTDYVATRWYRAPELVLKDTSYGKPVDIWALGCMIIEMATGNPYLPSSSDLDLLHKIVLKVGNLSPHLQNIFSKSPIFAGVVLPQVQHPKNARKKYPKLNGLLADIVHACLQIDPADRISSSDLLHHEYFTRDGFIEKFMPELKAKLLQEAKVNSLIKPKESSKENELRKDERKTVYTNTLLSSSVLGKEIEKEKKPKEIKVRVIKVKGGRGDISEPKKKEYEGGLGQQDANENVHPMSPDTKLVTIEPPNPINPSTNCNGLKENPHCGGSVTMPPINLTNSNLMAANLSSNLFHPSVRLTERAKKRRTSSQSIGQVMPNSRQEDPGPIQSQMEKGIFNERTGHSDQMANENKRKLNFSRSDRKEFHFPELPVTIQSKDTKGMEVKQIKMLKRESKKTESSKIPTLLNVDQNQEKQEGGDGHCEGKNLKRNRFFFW
# Chain of UniProt P29597 (whole entry, looked up): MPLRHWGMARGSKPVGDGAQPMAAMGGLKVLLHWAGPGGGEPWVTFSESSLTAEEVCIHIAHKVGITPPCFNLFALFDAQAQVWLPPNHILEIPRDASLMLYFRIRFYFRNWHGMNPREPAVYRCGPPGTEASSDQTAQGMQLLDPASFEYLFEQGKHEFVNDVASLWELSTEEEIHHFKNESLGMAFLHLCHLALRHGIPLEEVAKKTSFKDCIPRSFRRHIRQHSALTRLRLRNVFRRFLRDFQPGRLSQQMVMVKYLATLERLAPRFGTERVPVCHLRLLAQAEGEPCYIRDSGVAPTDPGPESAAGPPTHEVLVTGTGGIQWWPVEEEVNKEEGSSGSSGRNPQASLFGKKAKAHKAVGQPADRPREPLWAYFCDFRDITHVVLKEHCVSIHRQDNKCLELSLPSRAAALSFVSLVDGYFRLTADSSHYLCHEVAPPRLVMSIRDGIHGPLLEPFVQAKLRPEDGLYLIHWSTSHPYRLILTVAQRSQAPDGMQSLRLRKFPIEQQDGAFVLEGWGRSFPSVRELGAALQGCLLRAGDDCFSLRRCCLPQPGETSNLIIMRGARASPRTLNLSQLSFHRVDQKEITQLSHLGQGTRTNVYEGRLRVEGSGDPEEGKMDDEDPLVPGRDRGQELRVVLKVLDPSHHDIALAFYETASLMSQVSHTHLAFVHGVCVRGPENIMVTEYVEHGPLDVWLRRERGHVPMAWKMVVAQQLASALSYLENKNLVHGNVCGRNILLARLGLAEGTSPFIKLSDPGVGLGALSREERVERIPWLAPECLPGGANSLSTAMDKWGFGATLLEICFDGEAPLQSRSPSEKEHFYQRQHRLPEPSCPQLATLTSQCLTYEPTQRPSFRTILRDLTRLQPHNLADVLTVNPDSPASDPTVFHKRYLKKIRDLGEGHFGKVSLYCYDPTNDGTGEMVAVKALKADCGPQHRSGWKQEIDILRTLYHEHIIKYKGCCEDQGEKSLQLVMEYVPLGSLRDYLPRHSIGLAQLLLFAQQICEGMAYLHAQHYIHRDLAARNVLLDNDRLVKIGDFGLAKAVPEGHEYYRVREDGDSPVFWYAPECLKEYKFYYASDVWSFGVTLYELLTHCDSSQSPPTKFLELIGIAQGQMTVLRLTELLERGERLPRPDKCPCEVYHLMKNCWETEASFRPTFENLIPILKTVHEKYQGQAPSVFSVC
# Chain of UniProt Q13523 (whole entry, looked up): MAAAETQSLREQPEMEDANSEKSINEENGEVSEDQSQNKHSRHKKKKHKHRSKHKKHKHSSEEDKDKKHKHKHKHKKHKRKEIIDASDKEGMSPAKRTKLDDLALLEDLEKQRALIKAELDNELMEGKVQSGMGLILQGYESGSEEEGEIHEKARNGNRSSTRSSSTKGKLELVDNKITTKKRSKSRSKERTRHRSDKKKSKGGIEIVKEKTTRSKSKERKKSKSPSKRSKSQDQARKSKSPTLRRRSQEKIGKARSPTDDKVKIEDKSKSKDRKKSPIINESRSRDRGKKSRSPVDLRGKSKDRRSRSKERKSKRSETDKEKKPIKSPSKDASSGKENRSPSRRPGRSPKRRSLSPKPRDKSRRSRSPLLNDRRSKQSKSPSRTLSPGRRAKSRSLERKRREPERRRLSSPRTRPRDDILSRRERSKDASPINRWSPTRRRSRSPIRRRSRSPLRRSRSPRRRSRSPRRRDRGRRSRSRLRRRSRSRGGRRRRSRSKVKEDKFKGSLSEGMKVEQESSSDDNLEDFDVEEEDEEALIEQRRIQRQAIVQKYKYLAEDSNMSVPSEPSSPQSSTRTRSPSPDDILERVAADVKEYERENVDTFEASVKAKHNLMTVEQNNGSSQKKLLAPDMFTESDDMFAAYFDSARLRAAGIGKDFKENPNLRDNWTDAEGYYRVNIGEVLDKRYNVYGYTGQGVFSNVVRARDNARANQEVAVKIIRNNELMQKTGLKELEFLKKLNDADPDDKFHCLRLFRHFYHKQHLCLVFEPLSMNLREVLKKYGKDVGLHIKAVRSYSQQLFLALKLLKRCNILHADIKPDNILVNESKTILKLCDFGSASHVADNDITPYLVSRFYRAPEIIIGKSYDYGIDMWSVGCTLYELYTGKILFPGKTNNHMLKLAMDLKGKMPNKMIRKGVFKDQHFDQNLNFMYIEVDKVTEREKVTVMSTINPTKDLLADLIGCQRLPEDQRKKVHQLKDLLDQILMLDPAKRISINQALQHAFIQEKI
# Chain of UniProt Q6DT37 (whole entry, looked up): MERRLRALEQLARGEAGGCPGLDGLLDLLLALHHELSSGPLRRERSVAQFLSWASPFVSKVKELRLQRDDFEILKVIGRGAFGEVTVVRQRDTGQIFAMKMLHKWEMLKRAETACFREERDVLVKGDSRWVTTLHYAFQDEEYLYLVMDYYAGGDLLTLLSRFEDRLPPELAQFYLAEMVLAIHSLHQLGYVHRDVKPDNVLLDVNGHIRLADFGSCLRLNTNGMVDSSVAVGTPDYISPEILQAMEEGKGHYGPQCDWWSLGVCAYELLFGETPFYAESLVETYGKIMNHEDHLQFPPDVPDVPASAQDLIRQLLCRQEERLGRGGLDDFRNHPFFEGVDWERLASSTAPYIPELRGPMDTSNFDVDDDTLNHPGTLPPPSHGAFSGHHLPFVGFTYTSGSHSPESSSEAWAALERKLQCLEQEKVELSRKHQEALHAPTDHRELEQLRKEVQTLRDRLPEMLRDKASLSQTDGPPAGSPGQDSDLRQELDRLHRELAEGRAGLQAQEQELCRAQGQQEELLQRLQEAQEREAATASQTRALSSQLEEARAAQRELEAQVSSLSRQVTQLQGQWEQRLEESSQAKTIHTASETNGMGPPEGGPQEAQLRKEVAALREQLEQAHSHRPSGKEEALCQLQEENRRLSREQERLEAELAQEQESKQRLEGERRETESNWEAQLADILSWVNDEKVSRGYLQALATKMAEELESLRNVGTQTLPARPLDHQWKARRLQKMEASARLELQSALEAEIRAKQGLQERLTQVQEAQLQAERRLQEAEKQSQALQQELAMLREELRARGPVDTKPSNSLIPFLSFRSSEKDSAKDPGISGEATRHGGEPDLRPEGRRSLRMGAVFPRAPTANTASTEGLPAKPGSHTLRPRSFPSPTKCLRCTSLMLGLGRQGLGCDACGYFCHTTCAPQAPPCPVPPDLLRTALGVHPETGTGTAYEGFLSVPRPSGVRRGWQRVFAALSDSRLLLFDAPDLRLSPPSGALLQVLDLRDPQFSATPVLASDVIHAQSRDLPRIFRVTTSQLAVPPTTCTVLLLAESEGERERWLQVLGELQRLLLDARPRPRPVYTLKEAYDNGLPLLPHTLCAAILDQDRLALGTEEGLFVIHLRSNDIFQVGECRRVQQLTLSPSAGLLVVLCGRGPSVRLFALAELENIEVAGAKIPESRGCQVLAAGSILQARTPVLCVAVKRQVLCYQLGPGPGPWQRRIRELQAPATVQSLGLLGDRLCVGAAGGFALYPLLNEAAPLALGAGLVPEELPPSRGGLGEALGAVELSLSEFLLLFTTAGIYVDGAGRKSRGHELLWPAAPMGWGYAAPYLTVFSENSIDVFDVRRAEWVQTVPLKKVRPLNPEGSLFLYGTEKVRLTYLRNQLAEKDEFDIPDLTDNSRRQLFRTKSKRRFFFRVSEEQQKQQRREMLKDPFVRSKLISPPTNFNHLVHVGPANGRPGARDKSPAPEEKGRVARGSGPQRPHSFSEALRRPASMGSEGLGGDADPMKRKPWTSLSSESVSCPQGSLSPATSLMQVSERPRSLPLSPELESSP

# Study 1 — cell line: mouse MPNST tumor cells; method: high-content immunofluorescence imaging; refers to: nuclear SOX9; concentration: 10 µM; time: 12 h; setting: mean of 2 replicates; reference: DMSO control; reading: higher = more nuclear SOX9
Structure (SMILES),nuclear SOX9 intensity
COC(=O)c1ccc(N2CCN(C)CC2)c(NC(=O)c2cccc(OC)c2)c1,103 % of DMSO
Cc1cnc(NC(=O)c2cc(Oc3cnc(C(=O)N(C)C)nc3)c3cc(C)oc3c2)cn1,104 % of DMSO
CC(=O)N(CC(O)CN(C(C)=O)c1c(I)c(C(=O)NCC(O)CO)c(I)c(C(=O)NCC(O)CO)c1I)c1c(I)c(C(=O)NCC(O)CO)c(I)c(C(=O)NCC(O)CO)c1I (stereo not shown),94.4 % of DMSO
CCN1CCCC1CNC(=O)c1cc(S(N)(=O)=O)ccc1OC (stereo not shown),105 % of DMSO
Nc1c2c(nc3ccccc13)CCCC2,114 % of DMSO and 111 % of DMSO
O=C(O)c1ccc(C(=O)N[C@@H](c2ccc(OC(F)(F)F)c(F)c2)c2ncccc2F)nc1,90 % of DMSO
CO[C@@H]1[C@H](O)[C@@H](CO)O[C@H]1n1cnc2c(NC3CCCCC3)ncnc21,101 % of DMSO
CNC1(C)C2CCC(C2)C1(C)C (stereo not shown),102 % of DMSO and 115 % of DMSO
CN[C@@H](C)C(=O)N[C@H](C(=O)N1CCC[C@H]1C(=O)N[C@@H]1CCCc2ccccc21)C1CCCCC1,148 % of DMSO
O=C(NN=Cc1ccccc1O)c1ccccc1O,111 % of DMSO
NCCC[C@H](N)CC(=O)N[C@H]1CNC(=O)[C@H]([C@H]2C[C@H](O)NC(N)=N2)NC(=O)/C(=C/NC(N)=O)NC(=O)[C@H](CO)NC(=O)[C@H](CO)NC1=O,104 % of DMSO
Clc1cccc(-c2nnnn2Cc2cccnc2)c1Cl,95.2 % of DMSO
COc1ccc(C2=N[C@@H](c3ccc(Cl)cc3)[C@@H](c3ccc(Cl)cc3)N2C(=O)N2CCNC(=O)C2)c(OC(C)C)c1,77.2 % of DMSO and 76.8 % of DMSO
O=C(Nc1ccc(S(=O)(=O)Nc2ccccc2Cl)c(Cl)c1)c1ccccn1,95.8 % of DMSO

# Study 2 — concentration: 1 µM
# SMILES: CS(=O)(=O)c1cc(C2(NC(=O)c3cncc4c3cnn4-c3ccc(F)cc3)CC2)ccn1
target,read-out,method,remaining binding
"Ribosomal protein S6 kinase alpha-5, C-terminal kinase domain (RPS6KA5, Homo sapiens, UniProt O75582)",cell-free assay,competition with immobilised ligand,61%
"TGFBR1 (Homo sapiens, UniProt P36897)",cell-free assay,competition with immobilised ligand,100%
"CDC42BPG (Homo sapiens, UniProt Q6DT37)",,competition binding,100%
"PRKACA (Homo sapiens, UniProt P17612)",cell-free assay,competition with immobilised ligand,100%
"PKMYT1 (Homo sapiens, UniProt Q99640)",cell-free assay,competition with immobilised ligand,85%
"PRKACB (Homo sapiens, UniProt P22694)",cell-free assay,competition with immobilised ligand,100%
"BRAF (Homo sapiens, UniProt P15056, V600E)",cell-free assay,competition with immobilised ligand,94%
"KIT (Homo sapiens, UniProt P10721, V559D)",cell-free assay,competition with immobilised ligand,100%
"PRPF4B (Homo sapiens, UniProt Q13523)",cell-free assay,competition with immobilised ligand,100%
"CDKL3 (Homo sapiens, UniProt Q8IVW4)",cell-free assay,competition with immobilised ligand,96%
"Non-receptor tyrosine-protein kinase TYK2, JH2 (TYK2, Homo sapiens, UniProt P29597)",cell-free assay,competition with immobilised ligand,100%
"LRRK2 (Homo sapiens, UniProt Q5S007, G2019S)",cell-free assay,competition with immobilised ligand,100%
"MAP3K4 (Homo sapiens, UniProt Q9Y6R4)",cell-free assay,competition with immobilised ligand,87%
"PDPK1 (Homo sapiens, UniProt O15530)",cell-free assay,competition with immobilised ligand,100%
"SYK (Homo sapiens, UniProt P43405)",cell-free assay,competition with immobilised ligand,100%
"CAMK1G (Homo sapiens, UniProt Q96NX5)",cell-free assay,competition with immobilised ligand,100%

# Study 3 — read-out: enzyme activity; mode: inhibitor; concentration: 0.5 µM; reference: control
# Target: Calcium/calmodulin-dependent protein kinase type II subunit gamma (CAMK2G, Homo sapiens, UniProt Q13555)
# Chain of UniProt Q13555 (whole entry, looked up): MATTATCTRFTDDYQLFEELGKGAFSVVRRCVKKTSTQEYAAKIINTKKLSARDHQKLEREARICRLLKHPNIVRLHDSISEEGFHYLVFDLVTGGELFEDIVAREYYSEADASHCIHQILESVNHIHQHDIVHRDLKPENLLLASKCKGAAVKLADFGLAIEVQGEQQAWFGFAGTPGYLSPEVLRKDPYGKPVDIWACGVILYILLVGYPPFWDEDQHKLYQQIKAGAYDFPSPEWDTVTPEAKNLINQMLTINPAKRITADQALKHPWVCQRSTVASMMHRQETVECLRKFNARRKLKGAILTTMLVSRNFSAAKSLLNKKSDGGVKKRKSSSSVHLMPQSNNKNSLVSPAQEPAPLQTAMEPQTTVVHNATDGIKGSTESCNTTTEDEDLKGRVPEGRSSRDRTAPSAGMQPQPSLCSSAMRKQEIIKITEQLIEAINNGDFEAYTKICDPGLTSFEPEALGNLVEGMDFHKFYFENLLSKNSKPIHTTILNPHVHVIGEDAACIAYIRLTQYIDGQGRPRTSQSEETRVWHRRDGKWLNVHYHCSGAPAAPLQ
Structure (SMILES),remaining activity
Oc1ccc(Nc2nc(-c3ccc(Cl)cc3)cs2)cc1,90.6%
CC[n+]1c(/C=C/N(C)c2ccccc2)n(-c2ccccc2)c2ccc(-c3nc4ccccc4s3)cc21,103%
Cc1cc(Nc2nc(-c3ccccc3)nc3ccccc23)n[nH]1,95.9%
CC#CC(=O)Nc1cc2c(Nc3ccc(F)c(Cl)c3)ncnc2cn1,97.7%
CC(=O)c1ccc(N2CCOCC2)cc1O,90.2%
Nc1ncnc2c1cnn2-c1ccccc1,105%
Fc1ccc(-c2nc3n(c2-c2ccncc2)CCS3)cc1,90.5%
NC(=O)c1ccc(N(C(N)=O)c2c(F)cccc2F)nc1-c1ccc(F)cc1F,105%
O=C1NC(=O)C(c2c[nH]c3ccccc23)=C1c1c[nH]c2ccccc12,104%
CSc1nc(-c2ccnc(N[C@@H](C)c3ccccc3)c2)c(-c2ccc(F)cc2)[nH]1 (racemic),102%
COc1cc(Nc2c(C#N)cnc3cc(OCCCN4CCN(C)CC4)c(OC)cc23)c(Cl)cc1Cl,131%
Cc1ccc(NC2=CC(=O)c3sc(C)nc3C2=O)cc1,90.4%
COc1ccc(S(=O)(=O)N(CCO)c2ccccc2CN(C)CC=Cc2ccc(Cl)cc2)cc1,98.6%
Cc1cncc2cccc(S(=O)(=O)N3CCCN(C(=O)CN)C[C@@H]3C)c12,94%
O=C1Cc2c([nH]c3ccc([N+](=O)[O-])cc23)-c2ccccc2N1,94.5%
Nc1nccc(-c2c(-c3ccc(F)cc3)ncn2C2CCNCC2)n1,93%
CCCC(=O)Oc1ccc2[nH]c(C(=O)c3cc4ccccc4[nH]3)cc2c1,99.4%
N#CC(=C(N)Sc1ccc(N)cc1)c1ccccc1C(F)(F)F,106%
Nc1nc(Nc2ccc(S(N)(=O)=O)cc2)nn1C(=O)c1c(F)cccc1F,104%

# Study 4 — organism: Sarcocystis neurona; read-out: parasite growth; concentration: 10 µM; time: 96 h; setting: first screen
Structure (SMILES),inhibition [%]
CCCC(=O)Nc1ccc(OCC(O)CNC(C)C)c(C(C)=O)c1 (stereo not shown),12.3
CN(C)CCC=C1c2ccccc2COc2ccccc21,10.5
C=C(CC)C(=O)c1ccc(OCC(=O)O)c(Cl)c1Cl,-16.6
CN(C)CCC[C@@]1(c2ccc(F)cc2)OCc2cc(C#N)ccc21,20.2
C[C@H]1c2cccc(O)c2C(=O)C2=C(O)[C@]3(O)C(=O)C(C(N)=O)=C(O)[C@@H](N(C)C)[C@@H]3[C@@H](O)[C@@H]21,-29.1
NS(=O)(=O)c1cc2c(cc1Cl)NCNS2(=O)=O,-20.2
O=c1c(O[C@@H]2O[C@H](CO)[C@@H](O)[C@H](O)[C@H]2O)c(-c2ccc(O)c(O)c2)oc2cc(O)cc(O)c12,-11.6
CC(C[N+](C)(C)C)OC(N)=O (stereo not shown),-8.4
Cn1nnc2c(C(N)=O)ncn2c1=O,-3.4

# A few entries again (study 1):
Structure (SMILES),nuclear SOX9 intensity
O=C(O)c1ccc(C(=O)N[C@@H](c2ccc(OC(F)(F)F)c(F)c2)c2ncccc2F)nc1,90 % of DMSO
COc1ccc(C2=N[C@@H](c3ccc(Cl)cc3)[C@@H](c3ccc(Cl)cc3)N2C(=O)N2CCNC(=O)C2)c(OC(C)C)c1,77.2 % of DMSO and 76.8 % of DMSO
O=C(Nc1ccc(S(=O)(=O)Nc2ccccc2Cl)c(Cl)c1)c1ccccn1,95.8 % of DMSO
CN[C@@H](C)C(=O)N[C@H](C(=O)N1CCC[C@H]1C(=O)N[C@@H]1CCCc2ccccc21)C1CCCCC1,148 % of DMSO
